Experimental data collected from several papers.
Protocols differ between the studies behind these lines. “And” joins repeats or separate records; there may be more than shown. Numbers after ± are the reported error.

SMILES	technique	host	medium	route	dose	time	tissue uptake
CC(C)C[C@H](NC(=O)[C@@H](CCCCNC(=O)[C@@H](Cc1ccccc1)NC(=O)CCCCCCCNC(=O)CN1CCN(CC(=O)O)CCN(CC(=O)O)CCN(CC(=O)O)CC1)NC(=O)[C@H](Cc1ccc(O)cc1)NC(=O)[C@H](CO)NC(=O)[C@H](Cc1c[nH]c2ccccc12)NC(=O)[C@H](Cc1c[nH]cn1)NC(=O)[C@@H]1CCC(=O)N1)C(=O)N[C@@H](CCCNC(=N)N)C(=O)N1CCC[C@H]1C(=O)NCC(N)=O [indium-111 labelled]	biodistribution	male athymic nude mice, DU-145 prostate cancer xenograft	tumor	intravenous	0.037 MBq	2 h post-injection	0.53 ± 0.11 %ID/g
COc1ccc2c(c1)C(C)(C)C(/C=C/C1=C(Oc3ccc(C(=O)NCCCCOc4cc(CN(Cc5ccccn5)Cc5ccccn5)cc(CN(Cc5ccccn5)Cc5ccccn5)c4)cc3)C(=C/C=C3/N(CCCCS(=O)(=O)[O-])c4ccc(OC)cc4C3(C)C)CCC1)=[N+]2CCCCS(=O)(=O)[O-].O=[N+]([O-])[O-].O=[N+]([O-])[O-].[99Tc+].[C-]#[O+].[C-]#[O+].[C-]#[O+].[Zn+2]		BALB/c mice, S. aureus myositis	urine and bladder			12 h post-injection	0.57 %ID/g and 1.47 %ID/g and 3.02 %ID/g and 1.29 %ID/g
COc1ccc(Nc2nc(Nc3ccc(OCCOCC[18F])cc3)ncc2Br)cc1		ICR mice, S180 tumour-bearing	bone	intravenous	370 kBq	60 min	4.08 ± 0.53 %ID/g
CCCC[C@H](NC(=O)CNC(=O)CNC(=O)[C@H](CCCCNC(=O)[C@H](CC(=O)O)NC(=O)C(C)c1ccc(CC(C)C)cc1)NC(=O)CN1CCN(CC(=O)O)CCN(CC(=O)O)CCN(CC(=O)O)CC1)C(=O)N[C@H]1CC(=O)NCCCC[C@@H](C(N)=O)NC(=O)[C@H](Cc2c[nH]c3ccccc23)NC(=O)[C@H](CCCNC(=N)N)NC(=O)[C@@H](Cc2ccccc2)NC(=O)[C@H](Cc2c[nH]cn2)NC1=O (stereo partly drawn) [lutetium-177 labelled]		C57 mice, tumour-bearing	muscle			2 h	0.29 ± 0.05 %ID/g
COc1ccc(Nc2nc(Nc3ccc(OCCOCCOCC[18F])cc3)ncc2Br)cc1		ICR mice, S180 tumour-bearing	lung	intravenous	370 kBq	15 min	6.44 ± 0.73 %ID/g
CCCC[C@H](NC(=O)COCCOCCNC(=O)CN1CCN(CC(=O)O)CCN(CC(=O)O)CC1)C(=O)N[C@H]1CC(=O)NCCCC[C@@H](C(N)=O)NC(=O)[C@H](Cc2c[nH]c3ccccc23)NC(=O)[C@H](CCCNC(=N)N)NC(=O)[C@@H](Cc2ccccc2)NC(=O)[C@H](Cc2c[nH]cn2)NC1=O [fluorine-18 labelled]		C57 mice B16-F10 melanoma	tumor	intravenous	0.37 MBq	0.5 h	12.1 ± 0.79 %ID/g
CCCC[C@H](NC(=O)CNC(=O)CNC(=O)[C@H](CCCCNC(=O)C(C)c1ccc(CC(C)C)cc1)NC(=O)CN1CCN(CC(=O)O)CCN(CC(=O)O)CCN(CC(=O)O)CC1)C(=O)N[C@H]1CC(=O)NCCCC[C@@H](C(N)=O)NC(=O)[C@H](Cc2c[nH]c3ccccc23)NC(=O)[C@H](CCCNC(=N)N)NC(=O)[C@@H](Cc2ccccc2)NC(=O)[C@H](Cc2c[nH]cn2)NC1=O (stereo partly drawn) [lutetium-177 labelled]		C57 mice, tumour-bearing	pancreas			2 h	0.34 ± 0.2 %ID/g
Cc1cc(C)n(CCN(CCN)CCCCCCNC(=O)[C@@H](N)Cc2c[nH]cn2)n1.[99Tc+].[C-]#[O+].[C-]#[O+].[C-]#[O+]		BALB/c nude mice, A549 xenograft	blood	intravenous		24 h	0.16 ± 0.02 %IA/g
O=C(NCC1OC2CCC=CCCC2O1)c1ccc(COCCOCCOCC[18F])cc1 (stereo not drawn)		healthy female BALB/c nude mice	blood	intravenous	7.4 MBq per mouse	60 min	3.8 ± 0.8 %ID/g
CCCC[C@H](NC(=O)CNC(=O)CNC(=O)[C@H](CCCCNC(=O)[C@H](CCN)NC(=O)C(C)c1ccc(CC(C)C)cc1)NC(=O)CN1CCN(CC(=O)O)CCN(CC(=O)O)CCN(CC(=O)O)CC1)C(=O)N[C@H]1CC(=O)NCCCC[C@@H](C(N)=O)NC(=O)[C@H](Cc2c[nH]c3ccccc23)NC(=O)[C@H](CCCNC(=N)N)NC(=O)[C@@H](Cc2ccccc2)NC(=O)[C@H](Cc2c[nH]cn2)NC1=O (stereo partly drawn) [lutetium-177 labelled]		C57 mice, tumour-bearing	muscle			2 h	0.33 ± 0.07 %ID/g
Cc1cc(C)n(CCN(CCN)CCCCCCNC(=O)[C@@H](N)Cc2c[nH]c3ccccc23)n1.[99Tc+].[C-]#[O+].[C-]#[O+].[C-]#[O+]		BALB/c nude mice, A549 xenograft	tumor	intravenous		15 min	1.6 ± 0.39 %IA/g
O=C(NCC1OC2CCC=CCCC2O1)c1ccc([18F])nc1 (stereo not drawn)		healthy female BALB/c nude mice	heart	intravenous	7.4 MBq per mouse	10 min	5.8 ± 2 %ID/g
N#C[C@@H]1CCCN1C(=O)CNC(=O)c1ccnc2ccc(OCCCN3CCN(C(=O)CCc4ccc5c(c4)CN4CCN(Cc6cc(CCC(=O)O)ccc6O)CC(=O)[O][Al-]([18F])([O]C(=O)C4)[O]5)CC3)cc12 (stereo partly drawn)		BALB/c nude mice, U-87 MG xenograft	spleen			1 h	0.59 ± 0.2 %ID/g
O=C([O-])CN1CCN(CC(=O)[O-])CCN(CC(=O)NC[C@H]2CC[C@H](C(=O)N[C@H](Cc3cnc4ccccc4c3)C(=O)NCCCC[C@H](NC(=O)N[C@@H](CCC(=O)O)C(=O)O)C(=O)O)CC2)CCN(CC(=O)[O-])CC1.[64Cu+2]	ex vivo gamma counting	22Rv1 tumour-bearing mice	brain	intravenous	0.74 MBq	6 h post-injection	0.52 %ID/g
CCCC[C@H](NC(=O)CCCCCCCNC(=O)CN1CCN(CC(=O)O)CCN(CC(=O)O)CC1)C(=O)N[C@H]1CC(=O)NCCCC[C@@H](C(N)=O)NC(=O)[C@H](Cc2c[nH]c3ccccc23)NC(=O)[C@H](CCCNC(=N)N)NC(=O)[C@@H](Cc2ccccc2)NC(=O)[C@H](Cc2c[nH]cn2)NC1=O [fluorine-18 labelled]		C57 mice B16-F10 melanoma	blood	intravenous	0.37 MBq	0.5 h	2.47 ± 0.26 %ID/g

For quick reference, copied from above:
SMILES	technique	host	medium	route	dose	time	tissue uptake
N#C[C@@H]1CCCN1C(=O)CNC(=O)c1ccnc2ccc(OCCCN3CCN(C(=O)CCc4ccc5c(c4)CN4CCN(Cc6cc(CCC(=O)O)ccc6O)CC(=O)[O][Al-]([18F])([O]C(=O)C4)[O]5)CC3)cc12 (stereo partly drawn)		BALB/c nude mice, U-87 MG xenograft	spleen			1 h	0.59 ± 0.2 %ID/g
